Results of several laboratories.
Protocols differ between the studies behind these lines. “And” joins repeats or separate records; there may be more than shown. Numbers after ± are the reported error.
Beta-lactamase CTX-M-27: Beta-lactamase CTX-M-27 (Escherichia coli, UniProt Q840M4)
ALB: Albumin (ALB, Homo sapiens, UniProt P02768)
Chain of UniProt Q00987 (whole entry, looked up): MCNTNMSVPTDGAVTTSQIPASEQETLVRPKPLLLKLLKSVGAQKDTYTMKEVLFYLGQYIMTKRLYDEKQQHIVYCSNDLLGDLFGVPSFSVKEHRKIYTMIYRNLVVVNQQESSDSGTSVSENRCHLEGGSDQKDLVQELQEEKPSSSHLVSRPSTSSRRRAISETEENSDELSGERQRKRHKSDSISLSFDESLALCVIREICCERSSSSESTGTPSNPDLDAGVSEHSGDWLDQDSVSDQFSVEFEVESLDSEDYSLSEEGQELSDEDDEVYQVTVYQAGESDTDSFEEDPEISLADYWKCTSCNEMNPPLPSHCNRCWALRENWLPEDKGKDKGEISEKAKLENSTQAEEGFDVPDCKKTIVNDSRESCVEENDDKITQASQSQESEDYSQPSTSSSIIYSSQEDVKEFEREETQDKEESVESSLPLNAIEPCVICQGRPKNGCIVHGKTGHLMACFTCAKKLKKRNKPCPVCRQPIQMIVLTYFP
Chain of UniProt Q8JGN5 (whole entry, looked up): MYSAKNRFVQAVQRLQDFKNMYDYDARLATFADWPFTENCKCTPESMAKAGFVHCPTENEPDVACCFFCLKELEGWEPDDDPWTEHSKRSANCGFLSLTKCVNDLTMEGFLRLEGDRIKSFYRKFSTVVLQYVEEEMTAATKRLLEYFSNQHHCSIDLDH
Chain of UniProt B9K712 (whole entry, unmodified, looked up): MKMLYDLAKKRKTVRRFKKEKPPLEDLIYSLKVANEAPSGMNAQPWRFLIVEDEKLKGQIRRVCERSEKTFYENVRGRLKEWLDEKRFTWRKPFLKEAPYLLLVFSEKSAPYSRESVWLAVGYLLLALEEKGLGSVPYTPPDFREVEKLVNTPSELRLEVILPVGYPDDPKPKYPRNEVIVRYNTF
Chain of UniProt P30680 (whole entry, looked up): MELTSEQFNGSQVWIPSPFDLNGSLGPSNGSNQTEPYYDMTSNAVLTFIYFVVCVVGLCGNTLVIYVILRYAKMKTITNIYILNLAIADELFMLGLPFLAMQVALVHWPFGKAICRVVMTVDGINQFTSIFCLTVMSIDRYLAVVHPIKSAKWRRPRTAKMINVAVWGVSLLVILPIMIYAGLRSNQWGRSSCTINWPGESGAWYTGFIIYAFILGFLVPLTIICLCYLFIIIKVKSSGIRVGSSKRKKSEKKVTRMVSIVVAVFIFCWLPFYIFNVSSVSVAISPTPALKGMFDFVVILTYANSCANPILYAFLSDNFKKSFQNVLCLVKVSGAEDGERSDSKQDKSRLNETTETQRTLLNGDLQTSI
Chain of UniProt Q9NSY1 (whole entry, looked up): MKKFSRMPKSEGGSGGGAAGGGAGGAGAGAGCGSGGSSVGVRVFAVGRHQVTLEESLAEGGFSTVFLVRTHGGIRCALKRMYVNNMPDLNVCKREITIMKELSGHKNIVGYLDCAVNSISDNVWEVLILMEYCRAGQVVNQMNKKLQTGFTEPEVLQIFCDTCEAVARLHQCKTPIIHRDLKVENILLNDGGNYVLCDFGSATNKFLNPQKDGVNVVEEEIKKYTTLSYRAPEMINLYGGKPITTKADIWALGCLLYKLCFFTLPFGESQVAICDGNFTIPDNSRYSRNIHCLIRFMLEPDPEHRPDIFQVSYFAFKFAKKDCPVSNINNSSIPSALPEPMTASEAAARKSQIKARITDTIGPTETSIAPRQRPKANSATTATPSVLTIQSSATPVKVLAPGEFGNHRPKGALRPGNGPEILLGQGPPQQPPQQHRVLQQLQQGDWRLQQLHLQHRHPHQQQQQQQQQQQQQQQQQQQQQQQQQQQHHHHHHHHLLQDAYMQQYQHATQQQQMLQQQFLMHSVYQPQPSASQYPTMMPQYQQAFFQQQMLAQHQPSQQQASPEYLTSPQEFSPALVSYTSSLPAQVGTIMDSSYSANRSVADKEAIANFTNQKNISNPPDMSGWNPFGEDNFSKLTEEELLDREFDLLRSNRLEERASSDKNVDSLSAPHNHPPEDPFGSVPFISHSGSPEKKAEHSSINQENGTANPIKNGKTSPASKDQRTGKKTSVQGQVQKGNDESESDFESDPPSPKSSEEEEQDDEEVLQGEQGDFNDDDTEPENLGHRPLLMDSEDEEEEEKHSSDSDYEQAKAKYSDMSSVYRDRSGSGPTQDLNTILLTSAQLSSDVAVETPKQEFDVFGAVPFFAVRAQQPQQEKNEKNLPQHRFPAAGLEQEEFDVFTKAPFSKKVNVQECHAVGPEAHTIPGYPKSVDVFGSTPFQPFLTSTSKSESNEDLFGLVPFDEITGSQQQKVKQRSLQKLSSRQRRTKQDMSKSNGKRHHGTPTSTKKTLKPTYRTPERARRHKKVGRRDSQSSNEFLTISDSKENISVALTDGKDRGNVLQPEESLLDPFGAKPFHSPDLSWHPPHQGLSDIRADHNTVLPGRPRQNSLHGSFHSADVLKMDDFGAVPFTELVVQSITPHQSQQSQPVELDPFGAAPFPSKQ
Chain of UniProt Q99828 (whole entry, looked up): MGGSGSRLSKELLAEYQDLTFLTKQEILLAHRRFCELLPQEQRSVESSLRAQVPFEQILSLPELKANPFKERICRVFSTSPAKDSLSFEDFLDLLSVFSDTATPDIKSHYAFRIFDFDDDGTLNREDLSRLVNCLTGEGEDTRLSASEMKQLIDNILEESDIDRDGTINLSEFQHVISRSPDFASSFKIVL
Chain of UniProt P69905 (whole entry, looked up): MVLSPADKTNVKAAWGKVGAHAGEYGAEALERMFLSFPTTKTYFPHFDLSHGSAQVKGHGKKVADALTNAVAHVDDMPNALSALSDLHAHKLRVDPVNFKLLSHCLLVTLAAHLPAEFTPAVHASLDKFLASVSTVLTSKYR
Chain of UniProt Q13526 (whole entry, looked up): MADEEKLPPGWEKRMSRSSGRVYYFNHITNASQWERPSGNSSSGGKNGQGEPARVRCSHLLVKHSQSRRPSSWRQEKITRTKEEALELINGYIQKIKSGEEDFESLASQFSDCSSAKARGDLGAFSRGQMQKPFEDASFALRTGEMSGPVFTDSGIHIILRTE

Compound = CC[C@H](C)[C@@H]1NC(=O)[C@@H](NC(=O)[C@H](C)N)CSCCC(=O)N2CN3CN(C2)C(=O)CCSC[C@H](NC(=O)[C@H](Cc2ccc(O)cc2)NC(=O)[C@H](CCC(N)=O)NC(=O)CNC(=O)[C@H](CCC(=O)O)NC(=O)[C@H](CCC(=O)O)NC1=O)C(=O)N[C@@H](Cc1ccc(O)cc1)C(=O)N[C@@H](CCCNC(=N)N)C(=O)N[C@@H](CC(=O)O)C(=O)N[C@@H](CCSC)C(=O)N[C@@H](Cc1ccc(O)cc1)C(=O)N[C@@H](CCSC)C(=O)N[C@H](C(=O)N[C@@H](C)C(N)=O)CSCCC3=O; target = Tumor necrosis factor receptor superfamily member 9 (Homo sapiens, UniProt Q07011); assay = binding, SPR; Kd = 0.795 µM
Compound = O=C(Nc1cccc(-c2nn[nH]n2)c1)c1cc(-c2cccnc2)cc(C(F)(F)F)c1; target = Beta-lactamase CTX-M-27; assay = surface plasmon resonance; setting = 25 °C; Kd = 3.85 ± 0.05 µM
Compound = CC(=O)N(CC(=O)N(C)[C@@H](C)C(=O)N(Cc1c[nH]c2cc(Cl)ccc12)[C@@H](C)C(=O)N(C)[C@@H](C)C(=O)N(CCC(C)(C)C)[C@@H](C)C(=O)N1CCNCC1)Cc1ccccc1; target = MDM2 (Homo sapiens, UniProt Q00987); assay = binding, ITC; Kd = 0.318 µM
Compound = N[C@@H](Cc1ccc(O)c(I)c1)C(=O)O; target = Iodotyrosine deiodinase (IYD, Thermotoga neapolitana, UniProt B9K712, M41A); assay = FMN fluorescence quenching; setting = 25 °C, M41A variant; Kd = 0.25 ± 0.06 µM
Compound = C[C@H](N)C(=O)N[C@@H](CCCNC(=N)N)C(=O)N[C@H](C(=O)N[C@@H](CCCCN)C(=O)N[C@@H](CCC(N)=O)C(=O)N[C@H](C(=O)N[C@@H](C)C(=O)N[C@@H](CCCNC(=N)N)C(=O)N[C@@H](CCCCN)C(=O)N[C@@H](CO)C(=O)N[C@H](C(=O)NCC(=O)O)[C@@H](C)O)[C@@H](C)O)[C@@H](C)OP(=O)(O)O; target = Baculoviral IAP repeat-containing protein 5.1-A (birc5.1-a, Xenopus laevis, UniProt Q8JGN5); assay = ITC; setting = pH 7.6, 25 °C; Kd = 6.8 ± 0.24 µM
Compound = CC(C)C[C@H](NC(=O)[C@@H]1CSSC[C@@H]2NC(=O)[C@H](CC(N)=O)NC(=O)[C@@H](N)CSSC[C@H](NC(=O)[C@H](CC(C)C)NC(=O)[C@H](Cc3ccccc3)NC(=O)[C@H]([C@@H](C)O)NC(=O)[C@H](CCC(=O)O)NC(=O)[C@@H]3CCCN3C(=O)[C@H](C)NC(=O)[C@H](CCCCN)NC2=O)C(=O)N[C@@H](Cc2ccc(O)cc2)C(=O)N[C@@H](Cc2c[nH]c3ccccc23)C(=O)N[C@@H](CCCNC(=N)N)C(=O)N1)C(=O)N[C@@H](CCC(N)=O)C(N)=O; target = Protein Mdm4, residues 24-108 (MDM4, Homo sapiens, UniProt O15151); assay = binding, SPR competition; setting = synthetic MDMX 24-108, added: immobilized p53 peptide 15-29; Kd = 0.018 ± 0.0023 µM
Compound = C[C@@H](O)[C@H](NC(=O)[C@@H]1CSSC[C@H](NC(=O)[C@@H](Cc2ccccc2)NC(=O)CN2CCCN3CCN(CCCN(CP(=O)(O)O)CC3)CC2)C(=O)N[C@@H](Cc2ccc(O)cc2)C(=O)N[C@H](Cc2c[nH]c3ccccc23)C(=O)N[C@@H](CCCCN)C(=O)N[C@@H]([C@@H](C)O)C(=O)N1)C(=O)O [copper-64 labelled]; target = Somatostatin receptor type 2 (Rattus norvegicus, UniProt P30680); assay = binding, saturation binding; test system = AR-42J cell membranes; setting = 2 h, room temperature; Kd = 0.0018 ± 0.0005 µM
Compound = Cc1ncc(C[n+]2csc(CCO)c2C)c(=O)[nH]1; target = nicotinamide riboside transporter PnuT (Shewanella woodyi, UniProt B1KPL9); assay = isothermal titration calorimetry; test system = DDM; setting = pH 8.0, 25 °C; Kd = 129 µM and 130 µM
Compound = COc1ccc(C[C@@H](NC(=O)Cc2ccccc2)C(=O)N[C@@H](Cc2ccccc2)C(=O)N[C@@H](CCC(N)=O)C(=O)N[C@@H](CC(N)=O)C(=O)N[C@@H](CCCNC(=N)N)C(=O)N2CCC[C@H]2C(=O)N[C@@H](CCCNC(=N)N)C(=O)N[C@@H](Cc2ccc(O)c(I)c2)C(N)=O)cc1; target = Vasopressin V1a receptor (Mesocricetus auratus, UniProt A0ABM2Y7A2); assay = saturation binding; test system = hamster brain sections; Kd = 0.000262 µM
Compound = CSCC[C@H](NC(=O)[C@H](C)NC(=O)[C@H](CCCNC(=N)N)NC(=O)[C@H](Cc1ccc(O)cc1)NC(=O)[C@H](Cc1c[nH]c2ccccc12)NC(=O)[C@H](Cc1ccccc1)NC(=O)[C@H](CO)NC(=O)CNC(=O)CNC(=O)[C@H](CC(=O)O)NC(=O)[C@@H](N)CCC(=O)O)C(=O)N[C@@H](CCCCN)C(=O)N[C@@H](C)C(=O)N[C@@H](CC(C)C)C(=O)N[C@@H](Cc1ccc(O)cc1)C(=O)NCC(N)=O; target = CIB1 (Homo sapiens, UniProt Q99828); assay = peptide binding, inhibitor, TR-FRET competition; setting = pH 7.5, 1 mM calcium, added: 30 nM Alexa647-labelled peptide; Kd = 0.016 ± 0.007 µM
Compound = O=C(Nc1cccc(-c2nn[nH]n2)c1)c1cc(-c2ncccn2)cc(C(F)(F)F)c1; target = Beta-lactamase CTX-M-27; assay = surface plasmon resonance; setting = 25 °C; Kd = 0.834 ± 0.024 µM
Compound = CCOC(=O)CCCOc1ccc(C(=C2C=CC(=[N+](C)C)C=C2)c2ccc(N(C)C)cc2)cc1; target = dL5** fluorogen-activating protein; assay = fluorescence turn-on; Kd = 0.003 µM
Compound = C[C@H](NC(=O)[C@@H](N)Cc1ccc(O)cc1)C(=O)NCC(=O)N[C@@H](COP(=O)(O)O)C(=O)N[C@H](C(=O)N[C@@H](CC(=O)O)C(=O)N[C@@H](CCC(=O)O)C(=O)N[C@@H](CC(N)=O)C(=O)N[C@H](C(=O)N[C@@H](CC(=O)O)C(=O)N[C@@H](CO)C(=O)N[C@@H](CCC(=O)O)C(=O)O)[C@@H](C)O)[C@@H](C)OP(=O)(O)O; target = Bifunctional polynucleotide phosphatase/kinase, FHA domain (Homo sapiens, UniProt Q96T60); assay = binding, ITC; setting = pH 7.5, 10 °C, PNK FHA domain; Kd = 1.23 µM
Compound = CC(C)C[C@@H]1NC(=O)[C@H](C)NC(=O)[C@H](C)NC(=O)[C@H](CC(C)C)NC(=O)[C@H](CCC(=O)O)NC(=O)[C@H](C)NC(=O)[C@H](CCC(=O)O)NC(=O)[C@H](CC(C)C)NC(=O)[C@H](C)NC(=O)[C@H](C)NC(=O)[C@H](CC(C)C)NC(=O)[C@H](CCC(=O)O)NC(=O)[C@H](C)NC(=O)[C@H](C)NC(=O)[C@@H](N)CSSC[C@@H](C(N)=O)NC(=O)[C@H](C)NC(=O)[C@H](C)NC(=O)[C@H](CCCCN)NC(=O)[C@H](CC(C)C)NC(=O)[C@H](C)NC(=O)[C@H](C)NC(=O)[C@H](CC(C)C)NC(=O)[C@H](CCCCN)NC(=O)[C@H](C)NC(=O)[C@H](CCCCN)NC(=O)[C@H](CC(C)C)NC(=O)[C@H](C)NC(=O)[C@H](C)NC(=O)[C@H](CC(C)C)NC(=O)[C@H](CCCCN)NC(=O)CNC(=O)[C@H](CCCNC(=N)N)NC(=O)[C@H](Cc2ccccc2)NC(=O)[C@H](CC(C)C)NC(=O)[C@H](CCC(=O)O)NC(=O)[C@H](C(C)C)NC(=O)CNC(=O)[C@H](Cc2ccccc2)NC(=O)[C@H](CC(N)=O)NC(=O)[C@H](C(C)C)NC(=O)CNC(=O)[C@H](CCC(=O)O)NC1=O; target = ALB; assay = binding, SPR; Kd = 0.59 µM
Compound = CC(=O)CC(c1ccc(O)cc1)c1c(O)c2ccccc2oc1=O (centres unmarked); target = ALB; assay = binding, switchSENSE; setting = pH 7.4, 1% DMSO; Kd = 25.5 µM
Compound = N=C(N)NCCC[C@H](NC(=O)[C@H](Cc1ccccc1)NC(=O)[C@@H]1CCCN1C(=O)[C@H](CO)NC(=O)[C@H](Cc1ccccc1)NC(=O)CNC(=O)[C@@H]1CCCN1C(=O)[C@@H]1CCCN1C(=O)[C@@H](N)CCCNC(=N)N)C(=O)N[C@@H](CCCCNS(=O)(=O)c1ccc(C2=c3cc4c5c(c3Oc3c2cc2c6c3CCCN6CCC2)CCC[N+]=5CCC4)c(S(=O)(=O)[O-])c1)C(=O)O; target = Oligopeptide-binding protein OppA (oppA, Lactococcus lactis subsp. lactis, UniProt Q07741); assay = binding of labelled peptide, fluorescence anisotropy; test system = Lactococcus lactis; setting = pH 8, 37 °C; Kd = 15.9 ± 0.5 µM
Compound = COc1ccc(-c2cnc3[nH]cc(C#Cc4cccnc4)c3c2)cc1OC; target = BMP2K (Homo sapiens, UniProt Q9NSY1); assay = binding; Kd = 0.0038 µM
Compound = COC(=O)[C@H](Cc1ccccc1)NC(=O)[C@@H]1CCCN1C(=O)[C@@H](NC(=O)[C@H](C)NC(C)=O)C(C)C; target = PIN1 (Homo sapiens, UniProt Q13526); assay = binding; setting = pH 7.4; Kd = 6.11 µM
Compound = COc1cc(C=O)ccc1OCc1cccc(CO)n1; target = Hemoglobin subunit alpha, with beta chain (HBA1, Homo sapiens, UniProt P69905); assay = steady-state binding, cation-exchange HPLC; setting = 37 °C; Kd = 580 µM
Compound = CC[C@H](C)[C@H](NC(=O)CNC(=O)[C@H](CCCNC(=N)N)NC(=O)[C@H](CCCCN)NC(=O)CNC(=O)[C@H](CC(N)=O)NC(=O)CNC(=O)CNC(=O)CNC(=O)[C@H](CC(C)C)NC(=O)[C@H](C)NC(=O)CNC(=O)[C@H](Cc1c[nH]c2ccccc12)NC(=O)[C@H](Cc1ccc(O)cc1)NC(=O)CNC(=O)[C@H](CCCNC(=N)N)NC(=O)[C@H](CCSC)NC(=O)CNC(=O)[C@H](CCCCN)NC(=O)[C@H](CC(N)=O)NC(=O)[C@H](Cc1ccccc1)NC(=O)[C@H](CCCCN)NC(=O)[C@@H](N)CC(N)=O)C(=O)N[C@@H](CCSC)C(=O)NCC(=O)N[C@@H](Cc1ccc(O)cc1)C(=O)N[C@@H](CC(=O)O)C(=O)O; target = ERBB2 (Homo sapiens, UniProt P04626); assay = binding, SPR; Kd = 0.293 µM

Excerpt of the above:
Compound = COc1cc(C=O)ccc1OCc1cccc(CO)n1; target = Hemoglobin subunit alpha, with beta chain (HBA1, Homo sapiens, UniProt P69905); assay = steady-state binding, cation-exchange HPLC; setting = 37 °C; Kd = 580 µM
Compound = C[C@H](NC(=O)[C@@H](N)Cc1ccc(O)cc1)C(=O)NCC(=O)N[C@@H](COP(=O)(O)O)C(=O)N[C@H](C(=O)N[C@@H](CC(=O)O)C(=O)N[C@@H](CCC(=O)O)C(=O)N[C@@H](CC(N)=O)C(=O)N[C@H](C(=O)N[C@@H](CC(=O)O)C(=O)N[C@@H](CO)C(=O)N[C@@H](CCC(=O)O)C(=O)O)[C@@H](C)O)[C@@H](C)OP(=O)(O)O; target = Bifunctional polynucleotide phosphatase/kinase, FHA domain (Homo sapiens, UniProt Q96T60); assay = binding, ITC; setting = pH 7.5, 10 °C, PNK FHA domain; Kd = 1.23 µM
Compound = CC[C@H](C)[C@H](NC(=O)CNC(=O)[C@H](CCCNC(=N)N)NC(=O)[C@H](CCCCN)NC(=O)CNC(=O)[C@H](CC(N)=O)NC(=O)CNC(=O)CNC(=O)CNC(=O)[C@H](CC(C)C)NC(=O)[C@H](C)NC(=O)CNC(=O)[C@H](Cc1c[nH]c2ccccc12)NC(=O)[C@H](Cc1ccc(O)cc1)NC(=O)CNC(=O)[C@H](CCCNC(=N)N)NC(=O)[C@H](CCSC)NC(=O)CNC(=O)[C@H](CCCCN)NC(=O)[C@H](CC(N)=O)NC(=O)[C@H](Cc1ccccc1)NC(=O)[C@H](CCCCN)NC(=O)[C@@H](N)CC(N)=O)C(=O)N[C@@H](CCSC)C(=O)NCC(=O)N[C@@H](Cc1ccc(O)cc1)C(=O)N[C@@H](CC(=O)O)C(=O)O; target = ERBB2 (Homo sapiens, UniProt P04626); assay = binding, SPR; Kd = 0.293 µM
